Results pooled from the literature.
Every numbered part comes from another study and shows a few of its results, in no order. Substitutions count along the parent as printed.

Set 1 — method: RNA Bind-n-Seq; form: RNA; medium: in vitro; tested at: 365 nM; relative to: no-protein control; reading: higher = stronger binding; measurement: RBNS enrichment (R)
Target: RNA binding protein fox-1 homolog 2, RRM domain, GST-SBP tag (RBFOX2, Homo sapiens, UniProt O43251-10, residues 100-194)
Setting: natural RNA segment, single round, ends assumed
Shared flanks, not repeated: GGGAGUUCUACAGUCCGACGAUC … UGGAAUUCUCGGGUGCCAA
Target sequence (chain): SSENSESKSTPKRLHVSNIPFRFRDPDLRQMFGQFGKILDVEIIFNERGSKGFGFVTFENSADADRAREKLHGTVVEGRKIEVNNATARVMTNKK
Strand = AAUCCAGCAUAUUUAAGAGGUAAUCCUGUGUUUUCUGCAACAUUGAGGCAUUCAUACAGAGCUGCAGUUAGGCAGAGUUGCGGGGCUAGAAGCAGAAGCAGACAUCCCAU; result = 0.645
Strand = GAGGGAGUCAUGUGUGUUUGAAGGGAGAAGUCCAUUGAGUCUCUAAUUGACUUUUCUUUCAGCUCCAGUGUGAACUAUAAAACCAUAAUCACUCAGUUCUUGGAAAAGUC; result = 0.311
Strand = GUGAUGCUUAGGUAAUCUCUGGGAUCCGAUUUUCCCACAUGUCUCACUCCACAGUAUGCUAAAGAAGAAAAAGUGAGUGGGCACAACACUUUGACCCUCUGGCUAAGCCC; result = 0.763
Strand = GAAGAGUUUAAAGAGAAAAGGGAAAAAAGAAAGAAAAAGUAAGCAGGGCUGGCUUCGCCCGCGUUCUCGUCGUCGGAUCAAGGAGCGCGGCGGCGUUUUGGACCCGCGCU; result = 1.41
Strand = GCACCCCCUACUGUGUGCUCCUCUUGUGCACCUACUGUGUGCUUCUUCCGGGGCUUGUUGCCAUUCCCCUAGAUGCUGGAGAAAGCCUGGGCCAGCCUGUAGCCUGACCG; result = 0.566
Strand = CGCGCCCAGUCCAGGAUCUGCCUCCUAUCAGGGAUCCCAACUCUGAAUUUCCUGCCACUAACAUACACACAGUACCAGCCUUAAAACAAAAGACUAGGUACUGUAAGCAU; result = 0.283
Strand = UUUGUCACCUUUGCAUUGCAGAAUAAAUACCCAAUAACCGUUUUUAUAGGAGUUGCUCCUCUUUGCAUGGUUCUGUUCUAUAGAAGUGACUGAUAACAGCCAUUGCACUG; result = 0.797
Strand = CAGAAACCCCACUUCCAUUGUAUUGUCUGACACAUGCUCUCAAUAUAUAAUAAAUGGGAAAUGUCGAUUUUCAAUAAUAGACUUAUAUGCAGGCUGUCGUUCCGGUUAUG; result = 0.318
Strand = UCCUUUAAAAGUUUAAUGAUACUUCUGAUGUUUCGGAACAGUCAUUUCACCUACUAUUUCUGAAUAUAUUUUGCAAAUUGAAUUGGAAUAGGAAUUGAUAAUAGCAGUCU; result = 0.477
Strand = UUGCUGGCAUGUCUCCUUCACAAUCAGGCGUGGGAAUAUCUGGCUUAGGACUGUUUCUCUCUAAGACACCAUUGUUUUCCCUUAUUUUAAAAGUGAUUUUUUUAAGGACA; result = 0.368
Strand = UUCAGGCCUAGACAUACAUGAAACUUAUUUUUGAGGUUUUUGUGCUUUUGGUAUUUUCAUGUGUUACCUGCAUGUGAAUUUCUCAUGACUUUGUUUUUCUAGUUUCUUUU; result = 0.629
Strand = CUUUUAUAUAUUAAAAAACGUAUCAUGCACCAACUGUGAAUAGCUGCCGCUUGCGCAGAGGACCCGGGGAGGGGUCCCGAGAGGCUCCCCAUGCAACACUGGAAAUGACU; result = 2.26

Set 2 — target: CCNF, cyclin fold, Cln2 fusion (human); method: yeast growth competition, sequencing; medium: yeast; setting: strong parent motif; relative to: not given; reading: higher = stronger binding; measurement: normalised enrichment score
Starting sequence: CCP110 docking peptide (human); EKVKRRLDLDIDG
Change = EKVKKRLDFDIDG [R5K L9F]; result = 7.15
Change = EKVKARADLDIDG [R5A L7A]; result = 0.0646
Change = EKVARRLDLDIDG [K4A]; result = 6.22
Change = EKVKRALDLDIDG [R6A]; result = 2.81
Change = EAVKRRLDLDIDG [K2A]; result = 6.3
Change = EKVKRRLDADIDG [L9A]; result = 1.01
Change = EKVKRRLDLAIDG [D10A]; result = 5.05
Change = EKVKRRLDFDIDG [L9F]; result = 7.44
Change = EKVKARLDLDIDG [R5A]; result = 0.495
Change = EKVKRRLALDIDG [D8A]; result = 5.79

Set 3 — method: DHFR PCA, deep sequencing; medium: yeast; added: (+)-ABA 17 µM; relative to: wild-type fitted maximum; reading: higher = stronger binding; measurement: relative binding score
Target: ABI1, truncated, D143A, DHFR fusion (Arabidopsis thaliana)
Setting: methotrexate growth selection, single substitutions
Starting sequence: PYL1, truncated, DHFR fusion (Arabidopsis thaliana); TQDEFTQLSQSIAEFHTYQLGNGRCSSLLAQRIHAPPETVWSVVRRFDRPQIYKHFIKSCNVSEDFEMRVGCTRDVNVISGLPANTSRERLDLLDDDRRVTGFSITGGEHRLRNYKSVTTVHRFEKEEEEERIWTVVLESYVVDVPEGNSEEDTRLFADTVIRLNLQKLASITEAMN
Change = H16V; result = -10%
Change = A170D; result = 8.96%
Change = V161S; result = 5.28%
Change = T135C; result = 88.1%
Change = I162T; result = 8.41%
Change = S104P; result = -7.49%
Change = E38W; result = 50%
Change = T73D; result = 28.4%
Change = G148M; result = 45%
Change = F15R; result = 28.9%
Change = Q2D; result = 89%
Change = L156R; result = 49.7%
Change = Q19R; result = 85.5%
Change = E4W; result = 79.5%
Change = D48P; result = -9.65%
Change = E151N; result = 73.5%
Change = V62G; result = 0.613%
Change = T154I; result = 40.1%
Change = S171G; result = 80.2%
Change = S27F; result = 0.72%
Change = S150N; result = 86.5%
Change = E139K; result = 16%
Change = I52L; result = 86.8%
Change = Y141T; result = -5.66%
Change = H110C; result = -1.13%

Set 4 — target: ATF2, bZIP domain (human); method: DHFR protein complementation; medium: yeast; relative to: wild-type JUN-FOS pair; reading: higher = stronger binding; measurement: binding fitness
Setting: single substitutions, most at no-binding floor
Starting sequence: JUN, bZIP domain (human); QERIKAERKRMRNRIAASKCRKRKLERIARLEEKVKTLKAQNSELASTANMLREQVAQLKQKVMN; partner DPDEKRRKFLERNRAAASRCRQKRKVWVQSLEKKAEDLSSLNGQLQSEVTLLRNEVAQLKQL
Change = L31D; result = -1.38 natural log
Change = S43G; result = -1.38 natural log
Change = K39A; result = -1.35 natural log
Change = E33I; result = -1.42 natural log
Change = M51W; result = -1.45 natural log
Change = L52K; result = -1.33 natural log
Change = M51A; result = -1.44 natural log
Change = E44Q; result = -1.41 natural log
Change = L31K; result = -1.54 natural log
Change = L45W; result = -1.45 natural log
Change = V56C; result = -1.47 natural log
Change = L59S; result = -1.32 natural log
Change = Q41H; result = -1.5 natural log
Change = N42R; result = -1.43 natural log
Change = A57Q; result = -1.42 natural log
Change = A49T; result = -1.53 natural log
Change = Q41I; result = -1.28 natural log
Change = Q41R; result = -1.43 natural log
Change = R53Q; result = -1.55 natural log
Change = A40M; result = -1.41 natural log
Change = E54Y; result = -1.31 natural log
Change = Q55Y; result = -1.41 natural log
Change = V56L; result = -1.46 natural log

Set 5 — target: UBE2Q2 UBC core domain (UniProt Q8WVN8); method: yeast two-hybrid; medium: yeast; setting: mostly zero background; relative to: not given; reading: higher = stronger interaction; measurement: lacZ reporter activity
Sequence of UniProt Q8WVN8 (whole entry, looked up): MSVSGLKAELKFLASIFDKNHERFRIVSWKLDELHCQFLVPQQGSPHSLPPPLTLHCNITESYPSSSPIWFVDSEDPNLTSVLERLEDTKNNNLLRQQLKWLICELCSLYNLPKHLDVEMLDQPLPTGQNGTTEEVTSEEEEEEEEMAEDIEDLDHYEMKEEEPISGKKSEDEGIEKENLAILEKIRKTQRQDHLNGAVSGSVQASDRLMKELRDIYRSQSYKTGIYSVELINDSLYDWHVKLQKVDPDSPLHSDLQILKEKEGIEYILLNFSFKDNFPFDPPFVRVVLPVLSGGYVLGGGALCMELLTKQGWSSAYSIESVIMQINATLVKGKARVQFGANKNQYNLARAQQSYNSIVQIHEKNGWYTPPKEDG
B1: TRIM31 RING domain (UniProt Q9BZY9); chain FVNKLQEEVICPICLDILQKPVTIDCGHNFCLKCITQIGETSCGFFKCPLCKTSVRKNAIRF
B2: DEF8 RING domain (UniProt Q6ZN54); chain AGRLGCSLTEIHTLFAKHIKLDCERCQAKGFVCELCREGDVLFPFDSHTSVCADCSAVFHRDCYYDNSTTCPKCARLSLRK
B3: TRIM54 RING domain (UniProt Q9BYV2); chain SMDNLEKQLICPICLEMFSKPVVILPCQHNLCRKCANDVFQASNPLWQSRGSTTVSSGGRFRCPSCRHEVVLDRHGV
B4: RNF122 RING domain (UniProt Q9H9V4); chain AKKLQLYGQTCAVCLEDFKGKDELGVLPCQHAFHRKCLVKWLEVRCVCPMCNKPIASPSEAT
B5: RLIM RING domain (UniProt Q9NVW2); chain SFGENDALKTCSVCITEYTEGNKLRKLPCSHEYHVHCIDRWLSENSTCPICRRAVLASGNRE
B6: TRIM60 RING domain (UniProt Q495X7); chain ALVNLQEESSCPICLEYLKDPVTINCGHNFCRSCLSVSWKDLDDTFPCPVCRFCFPYKSFRR
B7: TRIM22 RING domain (UniProt Q8IYM9); chain VKVDIEKEVTCPICLELLTEPLSLDCGHSFCQACITAKIKESVIISRGESSCPVCQTRFQPGNLRP
B8: RNF152 RING domain (UniProt Q8N8N0); chain ETLSQDSLLECQICFNYYSPRRRPKLLDCKHTCCSVCLQQMRTSQKDVRCPWCRGVTKLPPGFS
B9: RNF166 RING domain (UniProt Q96A37); chain GDSGLEAQYTCPICLEVYHRPVAIGSCGHTFCGECLQPCLQVPSPLCPLCRLPFDPKKVDK
B10: MYCBP2 RING domain (UniProt O75592); chain TSLKQDADDMCMICFTEALSAAPAIQLDCSHIFHLQCCRRVLENRWLGPRITFGFISCPICKNKINHIVLKD
B11: RNF31 RING domain (UniProt Q96EP0); chain AFLRRLLAQECAVCGWALPHNRMQALTSCECTICPDCFRQHFTIALKEKHITDMVCPACGRPDLTDDTQLL
B12: MKRN2 RING domain (UniProt Q9H000); chain FAFQASQDKVCSICMEVILEKASASERRFGILSNCNHTYCLSCIRQWRCAKQFENPIIKSCPECRVISEFVIPSV
Sequence = LDAASGHPLVCPLCHGQYERPCLLDCFHDFCTGCLRGRATDGRLSCPLCQHQTLVKGPSG (Rnf207 RING domain (UniProt Q3V3A7)); result = 0
Sequence = B1 (TRIM31 RING domain); result = 0
Sequence = B2 (DEF8 RING domain); result = 0
Sequence = RYRQMEERITCPICIDSHIRLVFQCGHGACAPCGSALSACPICRQPIRDRIQIF (MIB2 RING domain (UniProt Q96AX9)); result = 0
Sequence = FVKTVEDKYKCEKCHLVLCSPKQTECGHRFCESCMAALLSSSSPKCTACQESIVKDKVF (TRAF3 RING domain (UniProt Q13114)); result = 0
Sequence = MNDVLENELQCIICSEYFIEAVTLNCAHSFCSYCINEWMKRKIECPICRKDIKSKTYSL (RNF8 RING domain (UniProt O76064)); result = 0
Sequence = B3 (TRIM54 RING domain); result = 0
Sequence = B4 (RNF122 RING domain); result = 0
Sequence = B5 (RLIM RING domain); result = 0
Sequence = B6 (TRIM60 RING domain); result = 0
Sequence = YPEEVDDDLICHICLQALLDPLDTPCGHTYCTLCLTNFLVEKDFCPMDRKPLVLQHCKK (LNX1 RING domain (UniProt Q8TBB1)); result = 0
Sequence = B7 (TRIM22 RING domain); result = 0
Sequence = B8 (RNF152 RING domain); result = 0
Sequence = B9 (RNF166 RING domain); result = 0
Sequence = B10 (MYCBP2 RING domain); result = 0
Sequence = B11 (RNF31 RING domain); result = 0
Sequence = KPDKMEETLTCIICQDLLHDCVSLQPCMHTFCAACYSGWMERSSLCPTCRCPVERICKNH (CHFR RING domain (UniProt Q96EP1)); result = 0
Sequence = B12 (MKRN2 RING domain); result = 0

Repeated from above (set 3):
Change = G148M; result = 45%
Change = F15R; result = 28.9%
Change = Q2D; result = 89%
Change = L156R; result = 49.7%
Change = Q19R; result = 85.5%
Change = E4W; result = 79.5%
Change = D48P; result = -9.65%
Change = E151N; result = 73.5%
Change = V62G; result = 0.613%
Change = T154I; result = 40.1%
Change = S171G; result = 80.2%
Change = S27F; result = 0.72%
